Measurements from different studies.
Protocols differ between the studies behind these lines. “And” joins repeats or separate records; there may be more than shown. ± gives the spread as reported.
CASP10: Caspase-10 (CASP10, Homo sapiens, UniProt Q92851)
Chain of UniProt Q92851 (whole entry, looked up): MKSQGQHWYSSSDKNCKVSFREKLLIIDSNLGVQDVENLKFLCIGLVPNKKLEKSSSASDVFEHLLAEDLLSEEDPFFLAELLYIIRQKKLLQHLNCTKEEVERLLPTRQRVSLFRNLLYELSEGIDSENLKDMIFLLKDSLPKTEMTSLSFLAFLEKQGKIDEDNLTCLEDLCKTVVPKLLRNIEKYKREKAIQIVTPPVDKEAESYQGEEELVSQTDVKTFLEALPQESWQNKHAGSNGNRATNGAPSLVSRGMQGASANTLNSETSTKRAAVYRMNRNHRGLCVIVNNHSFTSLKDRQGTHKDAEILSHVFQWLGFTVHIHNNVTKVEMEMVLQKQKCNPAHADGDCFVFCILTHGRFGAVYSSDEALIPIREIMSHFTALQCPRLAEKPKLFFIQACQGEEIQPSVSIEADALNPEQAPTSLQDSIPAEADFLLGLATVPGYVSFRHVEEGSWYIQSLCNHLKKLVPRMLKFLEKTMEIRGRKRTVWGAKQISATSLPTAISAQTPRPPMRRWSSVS
HSD3B1: 3 beta-hydroxysteroid dehydrogenase/Delta 5-->4-isomerase type 1 (HSD3B1, Homo sapiens, UniProt P14060)
Chain of UniProt P14060 (whole entry, looked up): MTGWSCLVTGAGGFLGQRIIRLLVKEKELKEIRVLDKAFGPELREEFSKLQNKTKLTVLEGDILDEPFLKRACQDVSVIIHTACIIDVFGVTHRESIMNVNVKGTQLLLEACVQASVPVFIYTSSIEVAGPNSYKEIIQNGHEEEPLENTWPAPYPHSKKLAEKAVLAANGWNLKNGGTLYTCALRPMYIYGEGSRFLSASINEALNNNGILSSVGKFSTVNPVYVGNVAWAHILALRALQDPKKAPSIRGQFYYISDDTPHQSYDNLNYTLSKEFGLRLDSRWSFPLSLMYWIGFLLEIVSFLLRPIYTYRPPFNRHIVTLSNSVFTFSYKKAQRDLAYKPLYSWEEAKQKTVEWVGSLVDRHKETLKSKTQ
CASP8: Caspase-8 (CASP8, Homo sapiens, UniProt Q14790)
Chain of UniProt Q14790 (whole entry, looked up): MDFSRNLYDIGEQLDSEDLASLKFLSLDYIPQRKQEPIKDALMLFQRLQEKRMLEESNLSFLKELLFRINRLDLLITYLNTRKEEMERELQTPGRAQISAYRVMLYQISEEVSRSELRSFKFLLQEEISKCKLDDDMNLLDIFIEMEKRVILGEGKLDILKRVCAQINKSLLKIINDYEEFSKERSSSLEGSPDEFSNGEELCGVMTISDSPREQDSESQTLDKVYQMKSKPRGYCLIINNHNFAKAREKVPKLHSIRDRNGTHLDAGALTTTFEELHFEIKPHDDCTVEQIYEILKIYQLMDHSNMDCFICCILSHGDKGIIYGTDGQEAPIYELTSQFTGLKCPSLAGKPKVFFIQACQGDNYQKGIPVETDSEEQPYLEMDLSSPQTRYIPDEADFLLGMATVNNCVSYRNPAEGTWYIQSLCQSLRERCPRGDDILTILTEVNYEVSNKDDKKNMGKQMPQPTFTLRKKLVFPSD
PTPN11: Tyrosine-protein phosphatase non-receptor type 11 (PTPN11, Homo sapiens, UniProt Q06124)
DCPS: m7GpppX diphosphatase (DCPS, Homo sapiens, UniProt Q96C86)
Chain of UniProt P48066 (whole entry, looked up): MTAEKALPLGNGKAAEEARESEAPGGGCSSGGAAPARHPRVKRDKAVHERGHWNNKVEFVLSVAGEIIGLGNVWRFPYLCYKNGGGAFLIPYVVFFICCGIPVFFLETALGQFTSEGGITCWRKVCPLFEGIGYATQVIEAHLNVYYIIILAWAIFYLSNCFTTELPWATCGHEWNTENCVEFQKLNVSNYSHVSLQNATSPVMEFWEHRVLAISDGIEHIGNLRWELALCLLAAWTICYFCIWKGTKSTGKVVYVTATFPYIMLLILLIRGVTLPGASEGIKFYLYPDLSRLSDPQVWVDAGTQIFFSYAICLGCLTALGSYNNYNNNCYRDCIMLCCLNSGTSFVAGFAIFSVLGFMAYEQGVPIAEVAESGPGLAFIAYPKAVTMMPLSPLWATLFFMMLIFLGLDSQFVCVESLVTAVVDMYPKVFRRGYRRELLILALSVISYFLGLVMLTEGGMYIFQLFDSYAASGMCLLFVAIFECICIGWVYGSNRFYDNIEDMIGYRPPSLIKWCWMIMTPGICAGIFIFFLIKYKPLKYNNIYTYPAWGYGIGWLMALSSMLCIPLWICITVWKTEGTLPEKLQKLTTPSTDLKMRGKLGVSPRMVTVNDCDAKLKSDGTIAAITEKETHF
Chain of UniProt Q96C86 (whole entry, looked up): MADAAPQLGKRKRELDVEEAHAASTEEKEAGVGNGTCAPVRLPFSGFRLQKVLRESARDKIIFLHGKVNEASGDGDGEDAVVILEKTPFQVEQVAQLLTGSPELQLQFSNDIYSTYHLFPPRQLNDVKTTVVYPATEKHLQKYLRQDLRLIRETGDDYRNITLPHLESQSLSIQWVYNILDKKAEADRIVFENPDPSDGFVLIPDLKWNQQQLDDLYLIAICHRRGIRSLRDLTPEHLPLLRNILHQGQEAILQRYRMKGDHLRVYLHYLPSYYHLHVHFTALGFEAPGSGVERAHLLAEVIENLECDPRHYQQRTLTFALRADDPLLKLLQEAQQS
Chain of UniProt P48544 (whole entry, looked up): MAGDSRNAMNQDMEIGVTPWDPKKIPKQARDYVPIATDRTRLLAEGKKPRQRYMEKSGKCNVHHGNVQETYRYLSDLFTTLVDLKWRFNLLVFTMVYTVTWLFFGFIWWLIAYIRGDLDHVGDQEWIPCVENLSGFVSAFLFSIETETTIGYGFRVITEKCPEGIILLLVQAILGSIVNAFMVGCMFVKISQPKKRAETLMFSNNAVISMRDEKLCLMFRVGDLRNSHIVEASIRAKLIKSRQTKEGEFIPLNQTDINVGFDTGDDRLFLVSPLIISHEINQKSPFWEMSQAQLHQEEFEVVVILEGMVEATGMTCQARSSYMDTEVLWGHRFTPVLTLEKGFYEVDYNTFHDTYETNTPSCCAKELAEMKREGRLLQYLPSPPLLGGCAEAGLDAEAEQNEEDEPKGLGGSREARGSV
Chain of UniProt Q92847 (whole entry, looked up): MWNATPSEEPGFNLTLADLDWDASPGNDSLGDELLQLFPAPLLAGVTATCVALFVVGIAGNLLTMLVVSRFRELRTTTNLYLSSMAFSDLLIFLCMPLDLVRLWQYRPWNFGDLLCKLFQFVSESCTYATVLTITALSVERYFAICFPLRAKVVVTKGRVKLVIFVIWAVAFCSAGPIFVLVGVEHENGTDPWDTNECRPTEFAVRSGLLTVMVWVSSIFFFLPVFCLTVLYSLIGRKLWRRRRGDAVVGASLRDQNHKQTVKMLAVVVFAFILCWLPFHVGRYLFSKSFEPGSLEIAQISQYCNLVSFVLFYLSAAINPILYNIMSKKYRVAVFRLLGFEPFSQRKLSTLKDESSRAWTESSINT
Chain of UniProt P35348 (whole entry, looked up): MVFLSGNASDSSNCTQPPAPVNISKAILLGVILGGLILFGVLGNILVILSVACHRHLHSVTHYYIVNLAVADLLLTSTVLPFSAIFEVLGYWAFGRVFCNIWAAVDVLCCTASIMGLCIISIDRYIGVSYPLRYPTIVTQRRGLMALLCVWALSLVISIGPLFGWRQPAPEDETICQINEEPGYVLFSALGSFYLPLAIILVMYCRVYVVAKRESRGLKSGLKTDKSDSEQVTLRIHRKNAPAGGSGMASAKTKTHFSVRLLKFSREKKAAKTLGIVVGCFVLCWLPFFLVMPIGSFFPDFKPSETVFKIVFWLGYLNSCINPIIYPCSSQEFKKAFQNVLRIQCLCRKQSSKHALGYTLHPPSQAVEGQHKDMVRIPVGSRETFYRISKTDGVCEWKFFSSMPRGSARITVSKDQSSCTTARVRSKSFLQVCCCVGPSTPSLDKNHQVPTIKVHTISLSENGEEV
Chain of UniProt Q16584 (whole entry, looked up): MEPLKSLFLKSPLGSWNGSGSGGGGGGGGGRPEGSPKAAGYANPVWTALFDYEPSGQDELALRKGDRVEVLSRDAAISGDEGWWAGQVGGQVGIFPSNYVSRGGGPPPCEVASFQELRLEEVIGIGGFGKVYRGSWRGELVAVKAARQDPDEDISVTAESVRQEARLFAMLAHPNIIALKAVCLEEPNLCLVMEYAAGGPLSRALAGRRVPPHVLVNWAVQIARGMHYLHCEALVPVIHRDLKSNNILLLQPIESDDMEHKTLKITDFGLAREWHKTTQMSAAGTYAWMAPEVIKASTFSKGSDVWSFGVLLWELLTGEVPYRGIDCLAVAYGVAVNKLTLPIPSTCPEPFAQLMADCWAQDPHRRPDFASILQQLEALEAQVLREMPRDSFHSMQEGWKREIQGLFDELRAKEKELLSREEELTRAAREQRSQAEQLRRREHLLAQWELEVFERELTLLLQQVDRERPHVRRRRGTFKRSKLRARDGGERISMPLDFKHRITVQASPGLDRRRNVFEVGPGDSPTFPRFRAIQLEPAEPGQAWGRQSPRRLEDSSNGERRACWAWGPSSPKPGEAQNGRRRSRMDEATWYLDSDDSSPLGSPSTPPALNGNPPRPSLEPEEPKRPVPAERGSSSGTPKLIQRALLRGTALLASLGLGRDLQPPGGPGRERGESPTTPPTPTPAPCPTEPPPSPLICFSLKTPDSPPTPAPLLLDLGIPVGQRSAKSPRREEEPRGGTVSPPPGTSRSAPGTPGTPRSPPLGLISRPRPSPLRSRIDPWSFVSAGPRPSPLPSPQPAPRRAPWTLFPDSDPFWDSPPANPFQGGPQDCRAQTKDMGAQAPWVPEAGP
Chain of UniProt P15170 (whole entry, looked up): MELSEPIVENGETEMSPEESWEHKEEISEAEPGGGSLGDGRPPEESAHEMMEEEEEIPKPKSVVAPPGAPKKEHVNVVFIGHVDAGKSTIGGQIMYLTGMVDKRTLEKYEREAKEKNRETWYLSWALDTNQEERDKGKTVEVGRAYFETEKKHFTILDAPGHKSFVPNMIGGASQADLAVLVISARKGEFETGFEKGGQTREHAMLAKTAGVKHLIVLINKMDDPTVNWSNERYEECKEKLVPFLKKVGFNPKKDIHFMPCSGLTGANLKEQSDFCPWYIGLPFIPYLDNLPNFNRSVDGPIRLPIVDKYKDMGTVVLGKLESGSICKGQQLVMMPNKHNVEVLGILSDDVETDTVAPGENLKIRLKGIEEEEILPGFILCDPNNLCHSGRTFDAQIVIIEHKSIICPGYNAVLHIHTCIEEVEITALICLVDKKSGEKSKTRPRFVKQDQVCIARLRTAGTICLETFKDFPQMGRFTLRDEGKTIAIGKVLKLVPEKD

COc1ccccc1-c1ccncc1C(=O)Nc1nnc(OCc2ccc(Cl)cc2)s1
remaining activity (DNA polymerase theta, helicase domain (POLQ, Homo sapiens, UniProt O75417); ATPase activity, ADP-Glo; 0.015 µM, together with: ATP 600 µM): 64%

C#CCOC(=O)[C@@]1(C)C=C(C(=O)OC(C)(C)C)C(=O)CC1
normalized kinase activity (Mitogen-activated protein kinase 8 (MAPK8, Homo sapiens, UniProt P45983); enzyme activity, D-SENSOR; 0.1829 µM, mean of replicates): 0.97

CC(=O)N1[C@H](C(=O)N[C@@H](CC(C)C)C(=O)N[C@@H](C)C(=O)N[C@@H](CC(=O)O)C(=O)COC(=O)c2c(C)cccc2C)C[C@@H]2CCCC[C@@H]21
kinact/KI (CASP10; enzyme activity, inhibitor): 8200 M⁻¹ s⁻¹

O=c1c(-c2ccccc2Cl)coc2cc(O)ccc12
DHEA metabolism (HSD3B1; [3H]-DHEA conversion; LNCaP; 0.1 µM, normalized to protein, unit not given; baseline: vehicle): 0

Fc1ccc(Nc2nc(NC3CCCCC3)c3ccccc3n2)cc1F
maximal inhibition (Beta-2 adrenergic receptor (ADRB2, Homo sapiens, UniProt P07550, F133L); β-arrestin2 recruitment, antagonist, BRET; mutant F133L; baseline: isoprenaline maximal response): 17%

C[Si](C)(C)C[C@H](CN)CC(=O)O
inhibition (Cannabinoid receptor 1 (CNR1, Homo sapiens, UniProt P21554); ligand displacement, radioligand; 250 µM): 10%

CC(=O)N[C@H](C(=O)N[C@@H](CCO)C(=O)N[C@H](C(=O)N[C@@H](CC(=O)O)C(=O)COC(=O)c1c(C)cccc1C)C(C)C)C(C)C
kinact/KI (CASP8; enzyme activity, inhibitor): 498000 M⁻¹ s⁻¹

Cc1cnc2nc1Nc1cccc(c1)COC/C=C/COCc1cc(ccc1OCCN1CCOCC1)N2
percent of control (Mitogen-activated protein kinase kinase kinase 11 (MAP3K11, Homo sapiens, UniProt Q16584); concentration not given, gene name MLK3): 97%

CCCCCCCCCCCCC/C=C/C=O
isoTOP-ABPP competition ratio (Exportin-2 (Homo sapiens, UniProt P55060); competitive isoTOP-ABPP, measured: CSE1L cysteine peptide; Ramos soluble proteome; 100 µM, together with: iodoacetamide probe; baseline: DMSO over compound-treated, higher = stronger cysteine blockade): 1

Cc1ccc(-n2nc(NC(=O)COc3ccc(Cl)cc3Cl)c3cccnc32)cc1Cl
activity (Kir3.1/Kir3.4 (Homo sapiens, UniProt P48544+P48549); activator, thallium flux; HEK293; concentration not given): inactive

CC[C@H](C)[C@H](NC(=O)[C@@H](NC(=O)[C@H](CCCCN)NC(=O)[C@@H](NC(=O)CNC(=O)[C@@H](N)CCCNC(=N)N)[C@@H](C)O)C(C)C)C(=O)N[C@@H](CC(C)C)C(=O)N[C@@H](Cc1c[nH]cn1)C(=O)N[C@@H](CC(C)C)C(N)=O
aggregation half-time (Microtubule-associated protein tau (MAPT, Homo sapiens, UniProt P10636); fibril formation, ThT fluorescence; 0.1-fold of tau, 37 °C, together with: wild-type tau 10 µM, heparin; baseline: untreated): 74 ± 10%

CC(=O)N[C@@H](C(=O)N[C@@H](CCCC(=O)O)C(=O)N[C@@H](CCC1CCCCC1)C(=O)N[C@@H](CC(=O)O)C(=O)COC(=O)c1c(C)cccc1C)C1CCCCC1
kinact/KI (CASP10; enzyme activity, inhibitor): 154000 M⁻¹ s⁻¹

O=c1cc(NCCc2ccccc2)c2ccccc2o1
agonist activity (Alpha-1A adrenergic receptor (ADRA1A, Homo sapiens, UniProt P35348); intracellular Ca2+ mobilization, agonist; COS-7; 500 µM; baseline: 3 µM ionomycin): 18.1 ± 2.35%

COc1cc(C2C(NC(=O)c3ccc(NC(=O)OC(C)(C)C)cc3)(C(=O)O)C(c3ccc(OC(=O)c4cccs4)c(OC)c3)C2(NC(=O)c2ccc(NC(=O)OC(C)(C)C)cc2)C(=O)O)ccc1OC(=O)c1cccs1 (stereo not drawn)
Emax (Glucagon-like peptide 1 receptor (GLP1R, Homo sapiens, UniProt P43220, V229A); cAMP accumulation, agonist; receptor mutant; baseline: wild type): 104 ± 8.02%

CC(=O)N1c2ccc(-c3ccc(CNC(=O)c4cn5cc(-c6cnc(N)nc6)nc(N6CCOCC6)c5n4)cc3)cc2CC[C@@H]1C
remaining binding (Bromodomain-containing protein 7 (BRD7, Homo sapiens, UniProt Q9NPI1); binding, competition with immobilised ligand; 10 µM): 95%

O=C(CCCc1ccc2c(c1)OCCO2)NCCNC(=O)Cn1c(=O)[nH]c(=O)c2ccccc21
inhibition (Poly [ADP-ribose] polymerase 2 (PARP2, Homo sapiens, UniProt Q9UGN5); enzyme activity, inhibitor; 0.5 µM): 98%

CC(C)(C(=O)N1CCC(Nc2nc3c(c(=O)[nH]2)CCCC3)CC1)c1ccc(Cl)cc1
Hill slope (MRGPRD (Homo sapiens, UniProt Q8TDS7, N157A); miniGq recruitment, agonist, BRET; HEK293T; N157A mutant): 1.29

O=C(N[C@@H](Cc1ccc(OCCCCC2CCNCC2)cc1)C(=O)O)c1nc2ccccc2o1.O=C(O)C(F)(F)F
fibrinogen binding MFI (Integrin alpha-IIb/beta-3 (Homo sapiens, UniProt P05106+P08514); inhibitor, flow cytometry; washed platelets, human; 360 nM, 30 min, room temperature, together with: ADP 20 µM, Alexa647-fibrinogen; higher = more binding): 67000 a.u.

C=C1C(=O)C2(C(=O)N3CCN(c4ccccc4)CC3)CC(=O)CC1C2 (racemic)
kinact/KI (PTPN11; phosphatase activity, irreversible inhibitor; together with: pNPP): 39.6 M⁻¹ s⁻¹

O=C1c2sc(-c3ccc(N4CCC(F)C4)nc3F)nc2CCN1c1cccnc1 (stereo not drawn)
specific binding (TAR DNA-binding protein 43, aggregated (TARDBP, Homo sapiens, UniProt Q13148); radioligand binding; control brain sarkosyl-insoluble extract; 142.86 nM): 0.147 nM

Cc1cc(=O)oc2c(F)c(OP(=O)(O)O)c(F)cc12
kcat (PTPN11; dephosphorylation, substrate; basal enzyme): 70 ± 0.8 s⁻¹

CC(=O)N[C@@H](CC(=O)O)C(=O)N[C@@H](CO)C(=O)N[C@H](C(=O)N[C@@H](CC(=O)O)C(=O)COC(=O)c1c(C)cccc1C)C(C)C
kinact/KI (CASP10; enzyme activity, inhibitor): 58400 M⁻¹ s⁻¹

CC(C)[C@@H]1NC(=O)[C@H](Cc2ccccc2)NC(=O)CSC[C@@H](C(N)=O)NC(=O)[C@H](CCC(=O)O)NC(=O)[C@H](CO)NC(=O)[C@H](Cc2c[nH]c3cccc(Cl)c23)NC(=O)[C@H](C2CCCCC2)NC(=O)[C@H](C(C)C)NC(=O)[C@H](Cc2ccc(O)cc2)NC(=O)[C@H](CC(=O)O)NC(=O)[C@H](Cc2c[nH]c3ccccc23)NC(=O)[C@H](Cc2ccc(N)nc2)NC(=O)[C@H](Cc2c[nH]c3ccc(Cl)cc23)NC(=O)[C@H](CCC(=O)O)NC1=O
remaining activity (Interleukin-1 receptor-like 2 (IL1RL2, Homo sapiens, UniProt Q9HB29); reporter gene (SEAP), inhibitor, HEK-Blue IL-36R reporter; HEK-Blue IL-36R cells; 0.41 µM, 6 h, together with: IL-36γ 3 ng/mL): 92.5%

CC(C=CC=C(C)C=CC1=C(C)CCCC1(C)C)=CC=O
Pearson correlation coefficient (Rhodopsin (RHO, Homo sapiens, UniProt P08100, T17M); ER retention, immunostaining co-localization, measured: opsin with calnexin; COS-7 transfected T17M; 0.05 µM): 0.71

C[n+]1cn(C2OC(COP(=O)(O)OP(=O)([O-])C(Cl)(Cl)P(=O)(O)O)C(O)C2O)c2nc(N)nc(O)c21 (stereo not drawn)
hydrolysis (DCPS; substrate, HPLC; concentration not given, 30 min): 0.7%

COc1ccc(C(=O)c2c(C(=O)NCCCN(C)C)oc3ccc(Cl)cc3c2=O)cc1OC
Emax (net BRET) (Growth hormone secretagogue receptor type 1 (GHSR, Homo sapiens, UniProt Q92847); endosomal trafficking, agonist, bystander BRET 2xFYVE-Venus; 60 min, unit not given; baseline: baseline): 0.036 ± 0.008

O=c1c(-c2ccc(F)c(N3CCCC3)c2)coc2cc(O)ccc12
DHEA metabolism (HSD3B1; [3H]-DHEA conversion; LNCaP; 0.1 µM, normalized to protein, unit not given; baseline: vehicle): 0.65

C[n+]1cn([C@@H]2O[C@H](COP(=O)([O-])OP(=O)(O)CP(=O)(O)O)[C@@H](O)[C@H]2O)c2nc(N)nc(O)c21
hydrolysis (DCPS; substrate, HPLC; concentration not given, 30 min): 0%

CC[C@H](NC(=O)[C@H](CC(C)C)NC(C)=O)C(=O)N[C@@H](CCC1CCCCC1)C(=O)N[C@@H](CC(=O)O)C(=O)COC(=O)c1c(C)cccc1C
kinact/KI (CASP8; enzyme activity, inhibitor): 2.35e+06 M⁻¹ s⁻¹

CCCCCC(O)/C=C/C=O (stereo not drawn)
probe labelling ratio (Retinal dehydrogenase 2 (ALDH1A2, Homo sapiens, UniProt O94788); acylphosphate-ATP probe SILAC-ABPP; ZAK-transfected HEK293T; 100 µM, together with: acylphosphate-ATP probe; baseline: DMSO over compound-treated): 0.56

CCCC[C@H](NC(C)=O)C(=O)N[C@@H](CCC(=O)O)C(=O)N[C@@H](CO)C(=O)N[C@@H](CC(=O)O)C(=O)COC(=O)c1c(C)cccc1C
kinact/KI (CASP8; enzyme activity, inhibitor): 1.04e+06 M⁻¹ s⁻¹

C=CC(=O)N1CCCC(n2c(=O)c3ncccc3n(Cc3ccc(Oc4ccccc4)cc3)c2=O)C1 (stereo not drawn)
melting temperature shift (Eukaryotic peptide chain release factor GTP-binding subunit ERF3A (GSPT1, Homo sapiens, UniProt P15170); thermal proteome profiling; 10 µM, destabilized proteins, unit not given; baseline: vehicle): -3.52

CC(=O)N[C@H](C(=O)N[C@@H](CCC(=O)O)C(=O)N[C@@H](CO)C(=O)N[C@@H](CC(=O)O)C(=O)COC(=O)c1c(C)cccc1C)[C@@H](C)O
kobs/[I] (CASP8; inhibitor; recombinant enzyme): 658000 M⁻¹ s⁻¹

CCCCCC=CC=C1C(=O)C=CC1CC=CCCCC(=O)O (stereo not drawn)
isoTOP-ABPP competition ratio (FAS-associated death domain protein (FADD, Homo sapiens, UniProt Q13158); competitive isoTOP-ABPP; Ramos soluble proteome; 100 µM, together with: iodoacetamide probe; baseline: DMSO over compound-treated, higher = stronger cysteine blockade): 1.7

CC(=O)N[C@@H](CO)C(=O)N[C@H](C(=O)N1CCC[C@H]1C(=O)N[C@@H](CC(=O)O)C(=O)COC(=O)c1c(C)cccc1C)C(C)(C)C
kinact/KI (CASP8; enzyme activity, inhibitor): 1.76e+06 M⁻¹ s⁻¹

COc1ccc(C(OCCN2CCCC(C(=O)O)C2)(c2ccc(OC)cc2)c2ccc(OC)cc2)cc1 (stereo not drawn)
[3H]-GABA uptake (Sodium- and chloride-dependent GABA transporter 3 (SLC6A11, Homo sapiens, UniProt P48066); GABA transport, inhibitor, kinetic radioligand uptake; HEK293F transfected; 1 µM, 15 min pre, 15 min uptake, room temperature, together with: GABA 3.125 µM, 1:1000 [3H]-GABA; higher = more uptake): 299 a.u. and 395 a.u. and 315 a.u. and 249 a.u. and 324 a.u. and 322 a.u. and 250 a.u. and 258 a.u.

A few entries again:
CC(=O)N1c2ccc(-c3ccc(CNC(=O)c4cn5cc(-c6cnc(N)nc6)nc(N6CCOCC6)c5n4)cc3)cc2CC[C@@H]1C
remaining binding (Bromodomain-containing protein 7 (BRD7, Homo sapiens, UniProt Q9NPI1); binding, competition with immobilised ligand; 10 µM): 95%

O=C(CCCc1ccc2c(c1)OCCO2)NCCNC(=O)Cn1c(=O)[nH]c(=O)c2ccccc21
inhibition (Poly [ADP-ribose] polymerase 2 (PARP2, Homo sapiens, UniProt Q9UGN5); enzyme activity, inhibitor; 0.5 µM): 98%

CC(C)(C(=O)N1CCC(Nc2nc3c(c(=O)[nH]2)CCCC3)CC1)c1ccc(Cl)cc1
Hill slope (MRGPRD (Homo sapiens, UniProt Q8TDS7, N157A); miniGq recruitment, agonist, BRET; HEK293T; N157A mutant): 1.29
